Experimental data from different studies.
Parts stem from different laboratories: compare values within a part only.
UniProt P34969, sequence (whole entry, looked up): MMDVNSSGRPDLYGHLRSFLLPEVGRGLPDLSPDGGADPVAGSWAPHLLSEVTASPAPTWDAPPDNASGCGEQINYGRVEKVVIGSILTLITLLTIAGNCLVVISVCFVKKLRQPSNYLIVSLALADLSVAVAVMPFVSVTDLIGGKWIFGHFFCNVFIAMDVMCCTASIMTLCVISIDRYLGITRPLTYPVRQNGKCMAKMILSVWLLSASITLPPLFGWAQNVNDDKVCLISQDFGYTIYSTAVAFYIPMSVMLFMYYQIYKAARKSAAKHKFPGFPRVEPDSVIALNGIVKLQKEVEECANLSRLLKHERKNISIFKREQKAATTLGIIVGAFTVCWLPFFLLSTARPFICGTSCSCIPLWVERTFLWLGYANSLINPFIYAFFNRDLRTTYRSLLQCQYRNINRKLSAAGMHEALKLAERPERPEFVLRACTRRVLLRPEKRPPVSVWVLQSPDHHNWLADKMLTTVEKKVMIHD
UniProt P25100, sequence (whole entry, looked up): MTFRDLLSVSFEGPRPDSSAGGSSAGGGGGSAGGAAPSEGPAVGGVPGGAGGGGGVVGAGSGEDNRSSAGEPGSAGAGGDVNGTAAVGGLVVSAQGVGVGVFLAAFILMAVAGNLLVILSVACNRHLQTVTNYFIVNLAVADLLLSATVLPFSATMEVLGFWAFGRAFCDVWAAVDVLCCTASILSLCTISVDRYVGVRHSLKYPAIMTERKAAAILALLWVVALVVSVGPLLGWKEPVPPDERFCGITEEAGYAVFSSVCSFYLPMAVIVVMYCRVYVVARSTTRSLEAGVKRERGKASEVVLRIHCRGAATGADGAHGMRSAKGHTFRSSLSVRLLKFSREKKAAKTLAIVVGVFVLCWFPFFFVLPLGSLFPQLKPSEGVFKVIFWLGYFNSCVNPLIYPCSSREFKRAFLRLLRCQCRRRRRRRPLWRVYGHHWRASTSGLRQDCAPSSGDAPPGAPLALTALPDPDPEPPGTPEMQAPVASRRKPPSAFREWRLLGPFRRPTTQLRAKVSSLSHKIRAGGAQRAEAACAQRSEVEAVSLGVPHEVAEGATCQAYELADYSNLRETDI
UniProt P35368, sequence (whole entry, looked up): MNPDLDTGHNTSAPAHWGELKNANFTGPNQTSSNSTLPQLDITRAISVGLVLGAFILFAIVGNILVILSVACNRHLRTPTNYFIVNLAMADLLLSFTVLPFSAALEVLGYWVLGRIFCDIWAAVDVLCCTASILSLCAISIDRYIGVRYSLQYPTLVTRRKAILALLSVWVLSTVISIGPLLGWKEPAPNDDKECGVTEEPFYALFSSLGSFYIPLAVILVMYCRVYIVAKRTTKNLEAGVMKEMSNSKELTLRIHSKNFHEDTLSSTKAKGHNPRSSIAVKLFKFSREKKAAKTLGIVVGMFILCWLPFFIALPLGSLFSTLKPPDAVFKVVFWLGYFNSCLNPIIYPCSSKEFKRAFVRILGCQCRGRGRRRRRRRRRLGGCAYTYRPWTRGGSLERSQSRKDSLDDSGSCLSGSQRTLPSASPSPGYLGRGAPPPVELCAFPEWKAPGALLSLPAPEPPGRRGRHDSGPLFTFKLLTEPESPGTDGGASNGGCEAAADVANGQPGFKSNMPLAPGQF
UniProt P18825, sequence (whole entry, looked up): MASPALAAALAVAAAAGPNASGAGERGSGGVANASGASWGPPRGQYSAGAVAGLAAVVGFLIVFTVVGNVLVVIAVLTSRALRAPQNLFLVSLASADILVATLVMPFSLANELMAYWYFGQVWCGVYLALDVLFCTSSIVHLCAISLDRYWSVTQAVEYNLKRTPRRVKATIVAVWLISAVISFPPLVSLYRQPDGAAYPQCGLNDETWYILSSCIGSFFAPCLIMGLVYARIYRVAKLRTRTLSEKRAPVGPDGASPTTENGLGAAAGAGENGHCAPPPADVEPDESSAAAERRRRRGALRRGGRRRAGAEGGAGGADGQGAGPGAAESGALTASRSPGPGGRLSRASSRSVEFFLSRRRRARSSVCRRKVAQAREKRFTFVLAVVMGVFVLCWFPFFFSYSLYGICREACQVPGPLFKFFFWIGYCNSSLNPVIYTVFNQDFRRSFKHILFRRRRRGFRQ
UniProt Q5BJF2, sequence (whole entry, looked up): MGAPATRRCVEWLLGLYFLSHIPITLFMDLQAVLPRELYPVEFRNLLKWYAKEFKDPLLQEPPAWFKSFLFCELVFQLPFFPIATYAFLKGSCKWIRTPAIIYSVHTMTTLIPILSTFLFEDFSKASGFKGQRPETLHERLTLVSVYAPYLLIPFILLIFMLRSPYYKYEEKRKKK

Sample 1
Structure (SMILES): O=C1CCC(N2Cc3cc(C4CCN(Cc5ccccc5)CC4)ccc3C2=O)C(=O)N1 (stereo not drawn)
Target: CRBN/Zinc finger protein Helios (Homo sapiens, UniProt Q96SW2+Q9UKS7)
UniProt Q9UKS7, sequence (whole entry, looked up): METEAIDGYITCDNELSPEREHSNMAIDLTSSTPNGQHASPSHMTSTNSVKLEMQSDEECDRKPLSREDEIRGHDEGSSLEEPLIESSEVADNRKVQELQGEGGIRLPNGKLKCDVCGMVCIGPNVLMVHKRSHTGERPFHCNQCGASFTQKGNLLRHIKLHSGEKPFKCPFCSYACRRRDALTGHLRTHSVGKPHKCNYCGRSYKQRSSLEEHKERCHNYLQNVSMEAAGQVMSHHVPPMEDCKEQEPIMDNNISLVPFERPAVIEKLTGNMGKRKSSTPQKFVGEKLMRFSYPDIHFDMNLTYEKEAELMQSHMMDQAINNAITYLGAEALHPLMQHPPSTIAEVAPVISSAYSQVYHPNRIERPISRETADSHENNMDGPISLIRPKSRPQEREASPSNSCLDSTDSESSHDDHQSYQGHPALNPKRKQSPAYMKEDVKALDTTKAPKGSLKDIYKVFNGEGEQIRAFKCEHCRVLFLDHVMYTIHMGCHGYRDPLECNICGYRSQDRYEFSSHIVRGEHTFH
UniProt Q96SW2, sequence (whole entry, looked up): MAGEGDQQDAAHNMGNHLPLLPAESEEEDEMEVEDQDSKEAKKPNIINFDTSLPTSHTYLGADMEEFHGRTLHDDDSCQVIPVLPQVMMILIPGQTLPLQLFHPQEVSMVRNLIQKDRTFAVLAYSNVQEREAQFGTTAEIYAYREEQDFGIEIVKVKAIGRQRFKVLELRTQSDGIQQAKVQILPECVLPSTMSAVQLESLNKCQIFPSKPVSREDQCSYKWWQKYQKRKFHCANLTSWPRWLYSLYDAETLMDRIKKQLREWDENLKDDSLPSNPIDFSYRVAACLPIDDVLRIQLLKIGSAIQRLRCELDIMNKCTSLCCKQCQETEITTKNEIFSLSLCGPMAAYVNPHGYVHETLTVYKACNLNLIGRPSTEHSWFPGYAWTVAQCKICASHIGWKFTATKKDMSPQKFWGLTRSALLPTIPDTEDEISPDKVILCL
Mode: degrader
Technique: HiBiT kinetics
Cells: HEK293
concentration | time | protein remaining
0.4572 nM | 6 h | 80.8%
37.04 nM | 0.5 h | 91.1%
0.01694 nM | 1 h | 94.2%
1000 nM | 3 h | 31.1%
4.115 nM | 6 h | 40.9%
0.1524 nM | 6 h | 88%
0.1524 nM | 3 h | 84.6%
111.1 nM | 3 h | 29.7%

Sample 2
Target: Calcium/calmodulin-dependent protein kinase type II subunit alpha (CAMK2A, Homo sapiens, UniProt Q9UQM7)
UniProt Q9UQM7, sequence (whole entry, looked up): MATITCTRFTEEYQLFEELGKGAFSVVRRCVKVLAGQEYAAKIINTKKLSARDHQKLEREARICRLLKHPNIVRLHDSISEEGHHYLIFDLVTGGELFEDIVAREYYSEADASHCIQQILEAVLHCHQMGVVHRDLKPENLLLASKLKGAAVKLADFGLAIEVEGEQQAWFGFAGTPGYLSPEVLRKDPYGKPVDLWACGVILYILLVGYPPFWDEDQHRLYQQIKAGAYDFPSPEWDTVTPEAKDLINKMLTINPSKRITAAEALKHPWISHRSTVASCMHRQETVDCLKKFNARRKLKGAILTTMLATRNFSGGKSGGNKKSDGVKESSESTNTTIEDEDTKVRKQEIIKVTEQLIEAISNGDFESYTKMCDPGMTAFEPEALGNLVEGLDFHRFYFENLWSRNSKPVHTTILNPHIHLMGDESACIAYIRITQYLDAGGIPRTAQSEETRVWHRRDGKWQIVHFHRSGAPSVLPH
Effect on: enzyme activity
Mode: inhibitor
Concentration: 10 µM
SMILES | inhibition
NC(=O)N1c2ccccc2C[C@H](O)c2ccccc21 | 6%
CC1(C)C(C=C(Cl)Cl)C1C(=O)OCc1cccc(Oc2ccccc2)c1 (stereo not drawn) | 0%
Cc1cnc(NC(=O)C2=C(O)c3ccccc3S(=O)(=O)N2C)s1 | -7%
COc1ccc(-c2cc(=O)c3c(OC)c(OC)c(OC)c(OC)c3o2)cc1OC | -45%
c1ccc2c(c1)CCO2 | -8%
CN1c2ccccc2C(=O)N2CCc3c([nH]c4ccccc34)C21 (racemic) | 12%
CS(=O)(=O)OCCCCOS(C)(=O)=O | -4%
COC(=O)Cc1ccc(C(C)(C)C)cc1 | 1%
CCCCCCCCCCCCCCCC(=O)NCc1ccccc1 | 3%
CC1(C)CC[C@]2(C(=O)O)CC[C@]3(C)C(=CC[C@@H]4[C@@]5(C)C[C@@H](O)[C@H](O)[C@@](C)(CO)[C@@H]5CC[C@]43C)[C@@H]2[C@@H]1O | -17%
CC1=CC=C(C(C)C)CC1 | -19%
O=C(O[C@H]1[C@H](Oc2c(-c3ccc(O)c(O)c3)oc3cc(O)cc(O)c3c2=O)O[C@H](CO)[C@H](O)[C@@H]1O)c1cc(O)c(O)c(O)c1 | -63%
COc1cc2nc(N3CCN(C(=O)[C@@H]4CCCO4)CC3)nc(N)c2cc1OC | -10%
C/C=C(/C)C(=O)O[C@H]1[C@H](OC(C)=O)[C@]2(CO)[C@H](O)C[C@]3(C)C(=CC[C@@H]4[C@@]5(C)CC[C@H](O[C@@H]6O[C@H](C(=O)O)[C@@H](O[C@@H]7O[C@H](CO)[C@@H](O)[C@H](O)[C@H]7O)[C@H](O)[C@H]6O[C@@H]6O[C@H](CO)[C@@H](O)[C@H](O)[C@H]6O)[C@](C)(CO)[C@@H]5CC[C@]43C)[C@@H]2CC1(C)C | -8%
CN1CCC(=C2c3ccccc3Sc3ccccc32)CC1 | 1%
C=CCc1ccc(OC)c(OC)c1 | -9%

Sample 3
Target: Insulin receptor-related protein (INSRR, Homo sapiens, UniProt P14616)
UniProt P14616, sequence (whole entry, looked up): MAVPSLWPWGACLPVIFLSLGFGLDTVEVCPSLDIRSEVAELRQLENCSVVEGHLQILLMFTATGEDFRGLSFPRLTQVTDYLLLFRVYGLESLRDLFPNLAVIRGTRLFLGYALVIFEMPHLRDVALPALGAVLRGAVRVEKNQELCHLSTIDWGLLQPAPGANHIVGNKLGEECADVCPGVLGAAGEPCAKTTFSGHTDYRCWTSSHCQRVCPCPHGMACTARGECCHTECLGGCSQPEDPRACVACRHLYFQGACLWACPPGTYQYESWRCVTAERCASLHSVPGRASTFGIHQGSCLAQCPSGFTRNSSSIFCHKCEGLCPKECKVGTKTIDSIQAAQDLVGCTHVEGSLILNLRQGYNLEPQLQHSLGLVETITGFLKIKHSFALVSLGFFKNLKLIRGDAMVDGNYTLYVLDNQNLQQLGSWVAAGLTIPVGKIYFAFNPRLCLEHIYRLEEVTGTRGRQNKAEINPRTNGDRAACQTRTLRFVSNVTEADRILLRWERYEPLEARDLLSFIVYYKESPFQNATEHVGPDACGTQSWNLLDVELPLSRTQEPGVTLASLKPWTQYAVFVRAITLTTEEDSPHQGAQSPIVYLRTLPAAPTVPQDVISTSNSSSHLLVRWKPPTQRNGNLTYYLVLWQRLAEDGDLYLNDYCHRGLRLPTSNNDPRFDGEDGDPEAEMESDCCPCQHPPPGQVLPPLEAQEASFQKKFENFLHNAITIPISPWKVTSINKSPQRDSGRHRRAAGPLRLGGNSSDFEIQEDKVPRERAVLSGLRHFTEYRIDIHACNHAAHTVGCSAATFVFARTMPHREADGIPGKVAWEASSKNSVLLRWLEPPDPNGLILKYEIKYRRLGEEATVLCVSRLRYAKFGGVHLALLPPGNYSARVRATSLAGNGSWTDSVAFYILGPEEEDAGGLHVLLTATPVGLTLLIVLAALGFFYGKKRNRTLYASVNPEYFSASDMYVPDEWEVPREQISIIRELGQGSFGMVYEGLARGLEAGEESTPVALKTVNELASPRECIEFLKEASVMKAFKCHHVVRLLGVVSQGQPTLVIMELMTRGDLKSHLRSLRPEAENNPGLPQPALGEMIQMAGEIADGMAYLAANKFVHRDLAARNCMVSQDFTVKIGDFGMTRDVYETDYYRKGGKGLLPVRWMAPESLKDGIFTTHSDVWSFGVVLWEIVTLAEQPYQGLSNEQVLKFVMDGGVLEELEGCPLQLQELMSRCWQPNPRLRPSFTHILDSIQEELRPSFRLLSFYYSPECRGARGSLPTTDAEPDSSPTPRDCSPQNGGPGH
Effect on: enzyme activity
Mode: inhibitor
Concentration: 0.5 µM
Reference: control
SMILES | remaining activity
CSc1nc(-c2ccnc(N[C@@H](C)c3ccccc3)c2)c(-c2ccc(F)cc2)[nH]1 (racemic) | 98.9%
O=C1NC(=O)C(c2c[nH]c3ccccc23)=C1c1c[nH]c2ccccc12 | 90.1%
Nc1ncnc2c1cnn2-c1ccccc1 | 106%
Cc1cncc2cccc(S(=O)(=O)N3CCCN(C(=O)CN)C[C@@H]3C)c12 | 103%
CCc1[nH]c(-c2ccc(OC)cc2)nc1-c1ccncc1 | 102%
O=S(=O)(NCCNC/C=C/c1ccc(Br)cc1)c1cccc2cnccc12 | 103%
Cc1ccc(NC2=CC(=O)c3sc(C)nc3C2=O)cc1 | 90%
CC(C)(C)n1nc(Cc2cccc3ccccc23)c2c(N)ncnc21 | 107%
COc1cc(Nc2c(C#N)cnc3cc(OCCCN4CCN(C)CC4)c(OC)cc23)c(Cl)cc1Cl | 36.9%
CC(=O)c1ccc(N2CCOCC2)cc1O | 96.7%
Fc1ccc(-c2nc3n(c2-c2ccncc2)CCS3)cc1 | 102%
CC#CC(=O)Nc1cc2c(Nc3ccc(F)c(Cl)c3)ncnc2cn1 | 101%
N#CC(=C(N)Sc1ccc(N)cc1)c1ccccc1C(F)(F)F | 88.1%
COc1ccc(S(=O)(=O)N(CCO)c2ccccc2CN(C)CC=Cc2ccc(Cl)cc2)cc1 | 97%
NC(=O)c1ccc(N(C(N)=O)c2c(F)cccc2F)nc1-c1ccc(F)cc1F | 102%
CC[n+]1c(/C=C/N(C)c2ccccc2)n(-c2ccccc2)c2ccc(-c3nc4ccccc4s3)cc21 | 101%
Oc1ccc(Nc2nc(-c3ccc(Cl)cc3)cs2)cc1 | 98.8%
CCCC(=O)Oc1ccc2[nH]c(C(=O)c3cc4ccccc4[nH]3)cc2c1 | 97.9%
Nc1nccc(-c2c(-c3ccc(F)cc3)ncn2C2CCNCC2)n1 | 103%
O=C1Cc2c([nH]c3ccc([N+](=O)[O-])cc23)-c2ccccc2N1 | 94.5%
Nc1nc(Nc2ccc(S(N)(=O)=O)cc2)nn1C(=O)c1c(F)cccc1F | 93.8%
Cc1cc(Nc2nc(-c3ccccc3)nc3ccccc23)n[nH]1 | 20.7%

Sample 4
Compound: CCS(=O)(=O)c1cc2cc(C[C@](O)(CC(C)(C)c3ccc(F)cc3C(N)=O)C(F)(F)F)[nH]c2cn1
Effect on: ligand displacement
Concentration: 10 µM
target | inhibition
ADRA1B (Homo sapiens, UniProt P35368) | 3.39%
SIGMAR1 (Homo sapiens, UniProt Q99720) | 10.1%
DRD4 (Homo sapiens, UniProt P21917) | -7.41%
ADRB2 (Homo sapiens, UniProt P07550) | 4.71%
TMEM97 (Homo sapiens, UniProt Q5BJF2) | 9.04%
HRH4 (Homo sapiens, UniProt Q9H3N8) | 3.88%
ADRA2C (Homo sapiens, UniProt P18825) | -1.88%
HTR6 (Homo sapiens, UniProt P50406) | -3.78%
HRH1 (Homo sapiens, UniProt P35367) | 4.27%
HTR7 (Homo sapiens, UniProt P34969) | 4.98%
ADRA2A (Homo sapiens, UniProt P08913) | -4.94%
ADRA1D (Homo sapiens, UniProt P25100) | -22.1%
CHRM2 (Homo sapiens, UniProt P08172) | -0.48%
CHRM5 (Homo sapiens, UniProt P08912) | 1.86%
